Published values gathered from unrelated publications.
Each numbered part is a random draw from the data of one study; scales do not carry over between parts.

Sample 1 — cell line: HEK-293T/ACE2; concentration: concentration not given; time: 16 (unit not given); reference: vehicle; quantity: viability
SMILES = CC(C)OC(=O)CCC/C=C\C[C@@H]1[C@@H](CC[C@@H](O)CCc2ccccc2)[C@H](O)C[C@@H]1O; result = 98.2%
SMILES = CNC1(C)C2CCC(C2)C1(C)C (stereo not drawn); result = 107%
SMILES = CN1CCCC(n2nc(Cc3ccc(Cl)cc3)c3ccccc3c2=O)CC1 (stereo not drawn); result = 99.9%

Sample 2 — effect on: enzyme activity; mode: inhibitor; concentration: 20 µM; notes: hit confirmation; quantity: inhibition
Target: Replicase polyprotein 1ab, main protease (rep, Severe acute respiratory syndrome coronavirus 2, UniProt P0DTD1)
SMILES = CCO[C@@H](Cc1ccc(OCCn2c(C)ccc2-c2ccc(SC)cc2)cc1)C(=O)O; result = -8.9%
SMILES = O=[N+]([O-])/C=C/c1ccc2c(c1)OCO2; result = 97.4%
SMILES = C=C1C(=O)O[C@H]2[C@H]1CC/C(C)=C/CC[C@@]1(C)O[C@@H]21; result = 86.2%
SMILES = CN1CCN2c3c(cccc31)[C@@H]1CN(CCCC(=O)c3ccc(F)cc3)CC[C@@H]12; result = 1.8%
SMILES = Cc1cc(O)c2c(c1)C(=O)c1cccc(O)c1C2=O; result = 22.5%

Sample 3 — technique: competition protein-binding microarray; form: double-stranded DNA, one strand shown; medium: in vitro; concentration: 2 µM; with: Cbf1 competitor, 0.05 µM; direction: higher = stronger binding; quantity: fluorescence intensity; constant ends, left off below: … GTCTTGATTCGCTTGACGCTGCTG
Target: Phosphate system positive regulatory protein PHO4, full length, GST-tagged (PHO4, Saccharomyces cerevisiae, UniProt P07270, residues 1-312)
Notes: whole 60-bp probe, lowest competitor level
Residues (chain): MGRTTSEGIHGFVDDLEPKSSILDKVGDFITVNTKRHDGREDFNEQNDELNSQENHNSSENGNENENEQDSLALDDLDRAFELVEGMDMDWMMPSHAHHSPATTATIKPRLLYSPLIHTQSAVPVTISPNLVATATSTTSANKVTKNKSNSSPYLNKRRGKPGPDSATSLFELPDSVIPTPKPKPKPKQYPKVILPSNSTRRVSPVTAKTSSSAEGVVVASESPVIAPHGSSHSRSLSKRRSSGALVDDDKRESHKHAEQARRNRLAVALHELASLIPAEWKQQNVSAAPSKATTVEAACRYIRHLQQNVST
Strand = TCATGATAGACTTTGTGCGTGGACCCCAAGCCAAAG; result = 6290 a.u.
Strand = CTTTCCCGATCTTGATTTGTGGGTGTAGCACATTTG; result = 4450 a.u.
Strand = CGTCCTAGTGATTTTCACGTGTTCTCCATGAGGAAG; result = 14700 a.u.
Strand = AAATTACTAAGTTGGTGAGTGGGTGACGCCGTATGA; result = 4470 a.u.
Strand = TTCTTGATTAGGACGCCCATGAAGTGGGCCAGCCAA; result = 3360 a.u.
Strand = TTTATGTGGCCTTAAATTTTCGACCTATGGTTCACT; result = 2820 a.u.
Strand = CTTCCGATAACTCCGCACGGCAAGGAGTAGTGGCGA; result = 5130 a.u.
Strand = TTAGAGTAGGGAGAGAATGTGACGAAGCCCTTTGTG; result = 4750 a.u.

Sample 4 — technique: RNA Bind-n-Seq; form: RNA; medium: in vitro; concentration: 365 nM; reference: no-protein control; direction: higher = stronger binding; quantity: RBNS enrichment (R)
Target: RNA binding protein fox-1 homolog 2, RRM domain, GST-SBP tag (RBFOX2, Homo sapiens, UniProt O43251-10, residues 100-194)
Notes: natural RNA segment, single round, ends assumed
Constant ends, left off below: GGGAGUUCUACAGUCCGACGAUC … UGGAAUUCUCGGGUGCCAA
Strand = GGAUGGACUAGACCCAUAAAUGUGCCAUGAAUCAAAAUAUUAAUAAUUUGAAAGCUUUCAUGCUGUUAGCCCCUGAUGAAAUUCUCAGCAUUAACUGGCCAGCUCCUCUG; result = 1.15
Strand = UACUGAAGCAUCAAAGUGUAGUUUAACCUUAAGGUUGGGUUGUAAAUAACACAGUUGGGUGUAGGCAUGGUAAAUCUGAGCAGUCCAUCCUUAGUAUGGUGGAAAGAUUU; result = 1.28
Strand = CAACCUUCCCCAGCUCCAAUAUGUAGCAGUCUCUCUGGAUGGCGGAGAGUGAAGGAGACGGAGAAACGCGCCCCAUCCCUUCCGCCGCCUCCUUUCCCCCCCGACCCUAU; result = 0.492
Strand = CCAAUCUCUCCCAGCUCUCUUCUUUCCUCCCUGGCCUUUGUCCUGCAGGAGGUAGCAUCACCUCUUGGCAUUUUGUACAUGCUUUUAAACAAUUGGAGGAGCUGCCCAGG; result = 0.719
Strand = AAUUUCCUCUGACCCAUGGGAAUGAAAAUACUUAAAUACUGUAAAGCAUAUCUAUUAAUAAUUCCCCCAAUUUUUUAAACUAACAAAAUGGAAUGUUAACUGAAUGGAAU; result = 0.635
Strand = UGAGUGAGGUGUAGGGAGUCUCCCUCCCCAAGUGGCCAUGUUUACAGAGUGUUGUCUACAAAGUGCAAGUGUGUUAAUGUUUAUGUAAAUUAUGCAGGUGAUAACUUUAU; result = 1.76
Strand = CUCCCUGCCAGCCUCCUGUGUCAAACCAGGUCCCUUCUCAGUACUGUAUUGGCUCAGUGCUUUCAGGAGUGAGUGUGUGAGUGAGUGUGUGAGUGUGUGUGGGCGUGAGC; result = 0.868
Strand = AUGUUAAUAAAACUUCUUGUAACGGCUAACUGCCACCUAAAAUAUGCUGGGUUUUCUGUUGUUUGAGUGUGUUAGAGAAAUUUGAAUGUUUUUGUCAGUUACGAGUCAGC; result = 1.28

Sample 5 — mode: inhibitor; concentration: 20 µM; quantity: inhibition
Target: Replicase polyprotein 1ab, nsp13 helicase (rep, Severe acute respiratory syndrome coronavirus 2, UniProt P0DTD1)
SMILES = CC(C)(C)NCC(O)COc1cccc2c1CCC(=O)N2 (stereo not drawn); result = 3.04%
SMILES = CN1Cc2c(C(=O)OC(C)(C)C)ncn2-c2ccsc2C1=O; result = 7.22%
SMILES = O=C(O[C@@H]1C[C@@H]2C[C@H]3C[C@H](C1)N2CC3=O)c1c[nH]c2ccccc12; result = -0.31%
SMILES = Oc1cc(CNC(=S)/C=C/c2cc(O)c(O)c(Br)c2)cc(O)c1O; result = 71.4%
SMILES = O=C(O)Cc1ccc2c(c1)C(=O)c1ccccc1CO2; result = 0.22%
SMILES = Cc1c(C)c2c(c(C)c1O)CCC(C)(C)O2; result = 6.91%
SMILES = C#C[C@]1(O)CC[C@H]2[C@@H]3CCC4=CC(=NO)CC[C@@H]4[C@H]3CC[C@@]21CC (mixture of isomers); result = 1.13%
SMILES = CCCN(CCC)C(=O)Cc1c(-c2ccc(Cl)cc2)nc2ccc(Cl)cn12; result = 2.35%
SMILES = O=C(N[C@H]1CN2CCC1CC2)c1ccc(Cl)cc1; result = 0.69%
SMILES = CC(S)C(=O)NCC(=O)O (stereo not drawn); result = 4.07%
SMILES = c1cc(Cc2cnc[nH]2)ccn1; result = 2.12%
SMILES = CCC(CC)C(c1ccc(Nc2nc3ccccc3s2)cc1)n1cncn1 (stereo not drawn); result = -0.23%
SMILES = CN(C)CC/C=C1/c2ccccc2Sc2ccc(Cl)cc21; result = 6%
SMILES = OCCN1CCN(CCCN2c3ccccc3C=Cc3ccccc32)CC1; result = 3.11%
SMILES = O=C(O)c1cccc(-c2noc(-c3ccccc3F)n2)c1; result = -3.85%
SMILES = CCOc1ccc(-c2nc(-c3cccc4c3CCC4NCCO)no2)cc1OCC (stereo not drawn); result = 20.2%
SMILES = Cc1oc(-c2ccccc2)nc1CCC(=O)c1ccc(CC2SC(=O)NC2=O)cc1 (stereo not drawn); result = -2.21%
SMILES = CSc1nc2ccc3nc(NC(=O)C(c4ccccc4)c4ccccc4)sc3c2s1; result = 4.82%
SMILES = OC[C@H]1O[C@@H](OCCc2ccc(O)cc2)[C@H](O)[C@@H](O)[C@@H]1O; result = 3.65%
SMILES = CC(C)(C)NCC(O)COc1cccc2[nH]c(C#N)cc12 (stereo not drawn); result = 0.47%
SMILES = CCOc1cc(C=O)ccc1O; result = -7.27%
SMILES = CCC(=O)O[C@H](CC(=O)O)C[N+](C)(C)C; result = 5.02%
SMILES = Cc1nc(Nc2ncc(C(=O)Nc3c(C)cccc3Cl)s2)cc(N2CCN(CCO)CC2)n1; result = 3.7%
SMILES = CCn1c2ccccc2c2cc(Nc3ccnc(NCCCN4CCOCC4)n3)ccc21; result = 31.1%
SMILES = O=S(=O)(N[C@H]1CC[C@@](c2cc(F)ccc2F)(S(=O)(=O)c2ccc(Cl)cc2)CC1)C(F)(F)F; result = 0.41%

Sample 6 — technique: universal PBM; form: double-stranded DNA, one strand shown; medium: in vitro; concentration: not given; direction: higher = stronger binding; quantity: E-score
Target: Sal-like protein 4, full length isoform B (SALL4, Homo sapiens, UniProt Q9UJQ4-2, residues 1-616)
Notes: 8-mer, flanks averaged, mean of replicates
Residues (chain): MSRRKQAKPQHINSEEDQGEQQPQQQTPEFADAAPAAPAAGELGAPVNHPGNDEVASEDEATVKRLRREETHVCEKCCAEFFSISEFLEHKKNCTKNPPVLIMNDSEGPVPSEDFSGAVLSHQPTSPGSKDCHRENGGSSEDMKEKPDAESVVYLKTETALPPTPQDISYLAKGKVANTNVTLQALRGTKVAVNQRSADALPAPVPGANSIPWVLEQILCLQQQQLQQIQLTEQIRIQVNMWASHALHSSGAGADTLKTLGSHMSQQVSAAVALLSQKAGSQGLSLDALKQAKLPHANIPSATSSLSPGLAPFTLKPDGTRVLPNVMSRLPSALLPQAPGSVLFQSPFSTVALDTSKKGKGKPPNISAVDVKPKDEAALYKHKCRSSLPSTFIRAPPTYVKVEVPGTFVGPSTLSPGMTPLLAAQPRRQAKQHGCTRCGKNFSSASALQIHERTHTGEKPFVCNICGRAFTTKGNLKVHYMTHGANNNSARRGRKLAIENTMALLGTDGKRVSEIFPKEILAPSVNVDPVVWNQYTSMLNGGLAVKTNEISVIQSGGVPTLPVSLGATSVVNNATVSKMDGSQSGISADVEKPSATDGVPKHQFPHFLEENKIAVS
Strand = CGAAACCC; result = -0.316
Strand = CCGGCAGG; result = -0.28
Strand = ACCGTGCG; result = -0.128
Strand = CGAACATA; result = 0.263
Strand = CAACGCAG; result = -0.25
Strand = CACCATTA; result = 0.0406
Strand = GCCAGGTA; result = -0.242
Strand = CTTTTGAA; result = 0.0957

Repeated from above (sample 5):
SMILES = CCC(=O)O[C@H](CC(=O)O)C[N+](C)(C)C; result = 5.02%
SMILES = CCOc1ccc(-c2nc(-c3cccc4c3CCC4NCCO)no2)cc1OCC (stereo not drawn); result = 20.2%
SMILES = CC(S)C(=O)NCC(=O)O (stereo not drawn); result = 4.07%
SMILES = CC(C)(C)NCC(O)COc1cccc2[nH]c(C#N)cc12 (stereo not drawn); result = 0.47%
SMILES = c1cc(Cc2cnc[nH]2)ccn1; result = 2.12%
SMILES = Cc1oc(-c2ccccc2)nc1CCC(=O)c1ccc(CC2SC(=O)NC2=O)cc1 (stereo not drawn); result = -2.21%
SMILES = C#C[C@]1(O)CC[C@H]2[C@@H]3CCC4=CC(=NO)CC[C@@H]4[C@H]3CC[C@@]21CC (mixture of isomers); result = 1.13%
